Results gathered from unrelated publications.
Each line is one published result; not all experiments were run side by side. In brackets after ≈: the same amount, converted by molar mass.
Chain of UniProt P00519 (whole entry, unmodified, looked up): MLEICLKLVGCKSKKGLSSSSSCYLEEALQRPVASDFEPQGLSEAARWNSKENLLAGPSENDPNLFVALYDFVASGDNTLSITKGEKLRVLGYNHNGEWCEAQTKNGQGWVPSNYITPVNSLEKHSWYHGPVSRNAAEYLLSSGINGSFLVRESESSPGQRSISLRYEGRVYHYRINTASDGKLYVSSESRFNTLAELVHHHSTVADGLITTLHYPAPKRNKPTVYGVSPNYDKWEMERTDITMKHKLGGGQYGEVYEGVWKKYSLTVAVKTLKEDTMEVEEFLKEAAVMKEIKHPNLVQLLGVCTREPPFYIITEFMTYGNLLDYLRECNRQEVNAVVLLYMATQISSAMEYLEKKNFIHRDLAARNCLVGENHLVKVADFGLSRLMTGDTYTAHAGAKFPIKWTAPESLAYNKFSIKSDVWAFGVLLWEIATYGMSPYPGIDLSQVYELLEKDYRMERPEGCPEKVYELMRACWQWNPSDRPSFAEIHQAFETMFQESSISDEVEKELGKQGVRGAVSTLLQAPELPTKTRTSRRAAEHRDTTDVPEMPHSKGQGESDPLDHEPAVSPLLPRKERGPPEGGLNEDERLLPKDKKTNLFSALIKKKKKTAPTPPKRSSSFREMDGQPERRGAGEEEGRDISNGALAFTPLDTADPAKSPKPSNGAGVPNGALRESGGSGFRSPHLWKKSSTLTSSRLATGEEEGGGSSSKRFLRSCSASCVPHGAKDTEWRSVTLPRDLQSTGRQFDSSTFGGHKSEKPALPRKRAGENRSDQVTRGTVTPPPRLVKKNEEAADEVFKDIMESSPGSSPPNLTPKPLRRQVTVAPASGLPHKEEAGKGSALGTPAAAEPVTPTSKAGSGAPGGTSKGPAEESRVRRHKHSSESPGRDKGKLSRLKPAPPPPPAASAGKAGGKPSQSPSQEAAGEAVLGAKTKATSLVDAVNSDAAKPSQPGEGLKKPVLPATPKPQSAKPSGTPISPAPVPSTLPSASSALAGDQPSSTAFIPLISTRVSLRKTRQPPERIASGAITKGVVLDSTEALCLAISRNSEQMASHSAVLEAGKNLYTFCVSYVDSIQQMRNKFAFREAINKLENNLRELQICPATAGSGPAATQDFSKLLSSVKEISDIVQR
Chain of UniProt Q14289 (whole entry, looked up): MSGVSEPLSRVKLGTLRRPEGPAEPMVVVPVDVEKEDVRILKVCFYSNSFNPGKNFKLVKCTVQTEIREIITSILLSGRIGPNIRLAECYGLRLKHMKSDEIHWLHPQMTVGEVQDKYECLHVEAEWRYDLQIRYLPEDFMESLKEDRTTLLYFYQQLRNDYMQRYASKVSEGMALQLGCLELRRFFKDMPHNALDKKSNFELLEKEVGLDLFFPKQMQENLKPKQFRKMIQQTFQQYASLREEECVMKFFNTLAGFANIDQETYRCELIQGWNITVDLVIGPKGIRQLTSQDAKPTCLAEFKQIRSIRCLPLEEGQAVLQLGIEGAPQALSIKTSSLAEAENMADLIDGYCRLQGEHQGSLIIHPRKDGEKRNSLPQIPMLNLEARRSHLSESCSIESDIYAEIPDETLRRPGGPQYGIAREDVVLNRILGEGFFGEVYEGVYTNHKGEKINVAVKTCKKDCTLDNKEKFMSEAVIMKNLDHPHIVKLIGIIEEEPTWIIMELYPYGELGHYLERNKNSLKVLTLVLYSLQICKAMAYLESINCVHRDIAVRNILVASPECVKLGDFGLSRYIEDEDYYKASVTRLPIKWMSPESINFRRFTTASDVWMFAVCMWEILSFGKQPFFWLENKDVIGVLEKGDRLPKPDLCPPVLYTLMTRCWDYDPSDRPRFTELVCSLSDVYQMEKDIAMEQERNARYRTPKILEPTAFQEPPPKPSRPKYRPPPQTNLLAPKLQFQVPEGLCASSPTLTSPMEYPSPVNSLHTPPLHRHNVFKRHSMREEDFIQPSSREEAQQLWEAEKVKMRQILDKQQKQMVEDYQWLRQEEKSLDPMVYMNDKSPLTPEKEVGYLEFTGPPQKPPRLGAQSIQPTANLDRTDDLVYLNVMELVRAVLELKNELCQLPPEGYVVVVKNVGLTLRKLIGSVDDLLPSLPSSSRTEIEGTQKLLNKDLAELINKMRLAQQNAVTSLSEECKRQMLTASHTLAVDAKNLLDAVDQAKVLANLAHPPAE
Chain of UniProt Q00534 (whole entry, looked up): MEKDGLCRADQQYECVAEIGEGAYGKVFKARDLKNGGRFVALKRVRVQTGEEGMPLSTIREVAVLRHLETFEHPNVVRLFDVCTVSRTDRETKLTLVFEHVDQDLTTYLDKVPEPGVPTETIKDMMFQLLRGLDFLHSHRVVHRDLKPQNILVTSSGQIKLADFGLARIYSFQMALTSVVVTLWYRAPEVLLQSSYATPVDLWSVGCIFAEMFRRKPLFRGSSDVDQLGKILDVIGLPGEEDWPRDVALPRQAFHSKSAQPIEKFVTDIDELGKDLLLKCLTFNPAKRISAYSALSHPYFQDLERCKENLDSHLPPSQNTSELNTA
Chain of UniProt P36896 (whole entry, looked up): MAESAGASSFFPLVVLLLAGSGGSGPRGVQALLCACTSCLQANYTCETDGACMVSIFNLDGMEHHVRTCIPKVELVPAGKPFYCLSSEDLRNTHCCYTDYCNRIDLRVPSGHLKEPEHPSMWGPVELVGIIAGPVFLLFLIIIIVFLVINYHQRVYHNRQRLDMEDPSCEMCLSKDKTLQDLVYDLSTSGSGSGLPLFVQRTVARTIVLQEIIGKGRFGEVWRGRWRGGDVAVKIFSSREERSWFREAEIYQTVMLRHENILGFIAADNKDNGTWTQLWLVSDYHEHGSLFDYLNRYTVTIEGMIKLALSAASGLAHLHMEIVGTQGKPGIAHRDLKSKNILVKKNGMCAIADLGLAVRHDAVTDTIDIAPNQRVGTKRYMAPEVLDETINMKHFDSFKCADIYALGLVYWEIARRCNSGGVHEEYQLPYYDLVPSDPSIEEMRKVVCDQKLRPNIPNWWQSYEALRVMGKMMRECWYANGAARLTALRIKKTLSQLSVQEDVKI

SMILES	target or system	test	test system	conditions	endpoint	result
O=c1[nH]c(=O)c2c[nH]nc2[nH]1	Cryptosporidium parvum	parasite growth, imaging	HCT-8	1 mM, 24 h, intracellular	activity vs control	115%
CN(Cc1ccc(C(C)(C)C)cc1)Cc1cccc2ccccc12	Trichophyton rubrum	microbial growth, disc diffusion	ATCC28188	0.0005 µg/mL, 6 days	inhibition zone	17.2 mm
Cc1ccccc1Oc1ccc(NC(=O)CNc2ccccc2N2CCCC2=O)cc1	Plasmodium falciparum	parasite growth	3D7	72 h, blood stage	EC50	> 10 µM
CCN(O)N=Nc1ccc(S(=O)(=O)Nc2onc(C)c2C)cc1	–	ABTS scavenging	–	60 µg/mL	inhibition	27.9%
Oc1cccc2cc[nH]c12	Cryptosporidium parvum	parasite growth	HCT-8	24 h, intracellular	EC90	1180 µM
COc1cc2ncnc(Nc3cccc(Br)c3)c2cc1OC	Staphylococcus aureus	microbial growth	NCTC8325	–	MIC	> 30 µM
OC(C#Cc1ccc(F)c(F)c1)c1ccccc1 (centres unmarked)	Pseudomonas aeruginosa	microbial growth, absorbance	–	10 µM, 24 h	activity vs control	94%
C[N+](C)(C)CCCC(=O)O	Cryptosporidium parvum	parasite growth, imaging	HCT-8	1 mM, 24 h, intracellular	activity vs control	103%
CC(=NNC(=O)c1cccnc1)c1ccc(Nc2nnc(-c3ccc(Cl)cc3)c3ccccc23)cc1	MCF7	cell growth or viability, MTT	–	2.5 µM, 24 h	viability	14.8%
Cc1cc([C@@H](C)Nc2ccccc2C(=O)O)c2nc(N3CCC(F)(F)CC3)c(C#N)c(=O)n2c1	Tyrosine-protein kinase ABL1, phosphorylated (ABL1, Homo sapiens, UniProt P00519)	binding, competition with immobilised ligand	–	10 µM	remaining binding	100%
COc1cc2nccc(Oc3ccc(NC(=O)Nc4ccc(F)cc4F)c(F)c3)c2cc1OC	Staphylococcus aureus	microbial growth	NCTC8325	–	MIC	> 30 µM
OC(C#Cc1ccc(F)c(F)c1)c1cccc(Cl)c1 (centres unmarked)	Pseudomonas aeruginosa	microbial growth, absorbance	–	100 µM, 24 h	activity vs control	98%
N#Cc1ccc2cc[nH]c2c1	Cryptosporidium parvum	parasite growth	HCT-8	24 h, intracellular	EC90	387 µM
COc1cc(C#CC(O)c2ccccc2OC)ccc1O (centres unmarked)	Pseudomonas aeruginosa	microbial growth, absorbance	–	10 µM, 24 h	activity vs control	96%
COc1cc(-c2cncc3c2CN(C)Cc2cc(N4CCNCC4)ccc2-3)cc(OC)c1OC	Cyclin-dependent kinase 6, with cyclin D3 (CDK6, Homo sapiens, UniProt Q00534)	enzyme activity, inhibitor	–	1 µM	remaining activity	117%
COc1cc(Nc2nc3ccccc3nc2NS(=O)(=O)c2ccc(NC(=O)c3ccc(C)c(OC)c3)cc2)cc(OC)c1	Staphylococcus aureus	microbial growth	NCTC8325	–	MIC	> 30 µM
Cc1ccc(N(CC(C)C)c2ccc(NC(=O)CN(C)c3ccccc3N3CCCC3=O)cc2)cc1	Plasmodium falciparum	parasite growth	3D7	72 h, blood stage	EC50	0.031 µM
N#Cc1cccc2[nH]ccc12	Cryptosporidium parvum	parasite growth	HCT-8	24 h, intracellular	EC90	743 µM
COc1cccc(C(=O)C#Cc2ccc(F)c(F)c2)c1	Pseudomonas aeruginosa	microbial growth, absorbance	–	100 µM, 24 h	activity vs control	85%

SMILES	target or system	test	test system	conditions	endpoint	result
Oc1ccc2cc[nH]c2c1	Cryptosporidium parvum	parasite growth	HCT-8	24 h, intracellular	EC90	1680 µM
O=C(O)c1ccc2c(c1)nc(Nc1cccc(Cl)c1)c1ccncc12	Staphylococcus aureus	microbial growth	NCTC8325	–	MIC	> 30 µM
CN(CC(=O)Nc1ccc(N(C)c2ccc(Cl)cc2)cc1Cl)c1ccccc1N1CCCC1=O	Plasmodium falciparum	parasite growth	3D7	72 h, blood stage	EC50	0.338 µM
O=C(Nc1ccc(C(=O)c2ccccc2)cc1)Nc1ccc(Cl)c(C(F)(F)F)c1	Staphylococcus aureus	microbial growth	NCTC8325	24 h	MIC	1 µM (≈ 0.419 µg/mL)
C=CC(=O)N1CCC(COCC(=O)N2CCN(c3nc(-c4cnc(N)nc4C(F)F)nc(N4CCOC[C@@H]4C)n3)CC2)CC1	Activin receptor type-1B (ACVR1B, Homo sapiens, UniProt P36896)	binding, competition with immobilised ligand	–	1 µM	remaining binding	100%
COc1cc(C#CC(=O)c2ccc(C)cc2)ccc1O	Pseudomonas aeruginosa	microbial growth, absorbance	–	10 µM, 24 h	activity vs control	102%
O=C(Nc1ccc2c(c1)OC(F)(F)O2)Nc1ccc(Cl)c(C(F)(F)F)c1	Staphylococcus aureus	microbial growth	–	clinical isolate	MIC	0.3 µM (≈ 0.118 µg/mL)
COc1cc(C#CC(=O)c2ccc(C(F)(F)F)cc2)ccc1O	Pseudomonas aeruginosa	microbial growth, absorbance	–	100 µM, 24 h	activity vs control	95%
O=C(O)CCC(=O)O	Cryptosporidium parvum	parasite growth, imaging	HCT-8	1 mM, 24 h, intracellular	activity vs control	116%
CN(Cc1ccc(C2(C(F)(F)F)CC2)cc1)Cc1cccc2ccccc12.Cl	Trichophyton rubrum	microbial killing, broth dilution	ATCC28188	6 days	MFC	2000 µg/mL
O=C(O)CCC(=O)C(=O)O	Cryptosporidium parvum	parasite growth, imaging	HCT-8	1 mM, 24 h, intracellular	activity vs control	96.7%
O=S(=O)(Nc1nccs1)c1ccc(N=NN(O)c2ccccc2)cc1	–	ABTS scavenging	–	60 µg/mL	inhibition	49.8%
CCCCC(=O)Nc1ccc(-c2ccc3ncn(CCC)c(=O)c3c2)cn1	Tyrosine-protein kinase ABL1, phosphorylated (ABL1, Homo sapiens, UniProt P00519, Y253F)	binding, competition with immobilised ligand	–	0.5 µM	remaining binding	99%
Cc1ccc(Oc2ccc(NC(=O)CNc3ccccc3-n3cncn3)cc2)cc1	Plasmodium falciparum	parasite growth	3D7	72 h, blood stage	EC50	1.93 µM
CNc1ncc2c(/C=C/C(=O)N3CCC(OC)CC3)nn(Cc3cccc(C(F)(F)F)c3)c2n1	Protein-tyrosine kinase 2-beta (PTK2B, Homo sapiens, UniProt Q14289)	enzyme activity, inhibitor, radiometric	–	1 µM	remaining activity	93%
COc1cc(C#CC(=O)c2ccccc2OC)ccc1O	Pseudomonas aeruginosa	microbial growth, absorbance	–	100 µM, 24 h	activity vs control	85%
CO[C@H]1C[C@@H]2CC[C@@H](C)[C@@](O)(O2)C(=O)C(=O)N2CCCC[C@H]2C(=O)O[C@H]([C@H](C)C[C@@H]2CC[C@@H](OP(C)(C)=O)[C@H](OC)C2)CC(=O)[C@H](C)/C=C(\C)[C@@H](O)[C@@H](OC)C(=O)[C@H](C)C[C@H](C)/C=C/C=C/C=C/1C	Staphylococcus aureus	microbial growth	NCTC8325	–	MIC	> 30 µM
CCC(C)C(=O)C#Cc1ccc(O)c(OC)c1 (centres unmarked)	Pseudomonas aeruginosa	microbial growth, absorbance	–	100 µM, 24 h	activity vs control	94%
Cc1ccc(N(C)c2ccc(NC(=O)CN(C)c3ccccc3N3CCCC3=O)cc2)cn1	Plasmodium falciparum	parasite growth	3D7	72 h, blood stage	EC50	0.543 µM

A few entries again:
SMILES	target or system	test	test system	conditions	endpoint	result
Cc1ccccc1Oc1ccc(NC(=O)CNc2ccccc2N2CCCC2=O)cc1	Plasmodium falciparum	parasite growth	3D7	72 h, blood stage	EC50	> 10 µM
COc1cc(C#CC(=O)c2ccc(C)cc2)ccc1O	Pseudomonas aeruginosa	microbial growth, absorbance	–	10 µM, 24 h	activity vs control	102%
C=CC(=O)N1CCC(COCC(=O)N2CCN(c3nc(-c4cnc(N)nc4C(F)F)nc(N4CCOC[C@@H]4C)n3)CC2)CC1	Activin receptor type-1B (ACVR1B, Homo sapiens, UniProt P36896)	binding, competition with immobilised ligand	–	1 µM	remaining binding	100%
COc1cc(-c2cncc3c2CN(C)Cc2cc(N4CCNCC4)ccc2-3)cc(OC)c1OC	Cyclin-dependent kinase 6, with cyclin D3 (CDK6, Homo sapiens, UniProt Q00534)	enzyme activity, inhibitor	–	1 µM	remaining activity	117%
CN(Cc1ccc(C(C)(C)C)cc1)Cc1cccc2ccccc12	Trichophyton rubrum	microbial growth, disc diffusion	ATCC28188	0.0005 µg/mL, 6 days	inhibition zone	17.2 mm
Cc1cc([C@@H](C)Nc2ccccc2C(=O)O)c2nc(N3CCC(F)(F)CC3)c(C#N)c(=O)n2c1	Tyrosine-protein kinase ABL1, phosphorylated (ABL1, Homo sapiens, UniProt P00519)	binding, competition with immobilised ligand	–	10 µM	remaining binding	100%
